Measurements gathered from unrelated publications.
Each line is one published result; not all experiments were run side by side. Several values in a cell are separate wells, animals, samples, runs or records. Numbers after ± are the reported error. ≈ marks a conversion by molar mass, not a printed value.
Sequence of UniProt P05177 (whole entry, looked up): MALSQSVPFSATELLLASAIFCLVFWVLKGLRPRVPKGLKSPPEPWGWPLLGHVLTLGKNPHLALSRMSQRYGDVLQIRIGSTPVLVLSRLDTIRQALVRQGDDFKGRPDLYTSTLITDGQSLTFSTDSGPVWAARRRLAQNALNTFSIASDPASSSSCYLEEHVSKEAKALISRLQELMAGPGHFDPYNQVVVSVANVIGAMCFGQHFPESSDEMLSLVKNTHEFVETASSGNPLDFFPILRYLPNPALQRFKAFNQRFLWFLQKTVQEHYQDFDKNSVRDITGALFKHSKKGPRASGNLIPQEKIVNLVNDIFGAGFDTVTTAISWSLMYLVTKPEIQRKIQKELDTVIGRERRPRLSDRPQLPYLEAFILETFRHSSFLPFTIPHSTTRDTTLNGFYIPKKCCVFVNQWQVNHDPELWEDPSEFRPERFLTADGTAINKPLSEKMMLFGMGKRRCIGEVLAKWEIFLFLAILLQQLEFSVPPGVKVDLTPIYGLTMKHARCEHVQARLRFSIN
Sequence of UniProt O75874 (whole entry, unmodified, looked up): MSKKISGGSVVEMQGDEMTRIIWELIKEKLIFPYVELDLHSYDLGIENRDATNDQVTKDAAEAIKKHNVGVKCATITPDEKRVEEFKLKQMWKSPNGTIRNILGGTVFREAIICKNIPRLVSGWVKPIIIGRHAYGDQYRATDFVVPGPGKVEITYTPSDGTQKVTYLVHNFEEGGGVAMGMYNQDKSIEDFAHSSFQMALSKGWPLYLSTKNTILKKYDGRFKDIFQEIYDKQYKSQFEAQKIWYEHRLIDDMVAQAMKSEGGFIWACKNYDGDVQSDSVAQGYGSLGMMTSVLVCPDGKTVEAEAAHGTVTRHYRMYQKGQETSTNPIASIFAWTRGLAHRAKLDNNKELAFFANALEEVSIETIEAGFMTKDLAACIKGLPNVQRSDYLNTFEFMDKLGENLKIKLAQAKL
Sequence of UniProt P35626 (whole entry, looked up): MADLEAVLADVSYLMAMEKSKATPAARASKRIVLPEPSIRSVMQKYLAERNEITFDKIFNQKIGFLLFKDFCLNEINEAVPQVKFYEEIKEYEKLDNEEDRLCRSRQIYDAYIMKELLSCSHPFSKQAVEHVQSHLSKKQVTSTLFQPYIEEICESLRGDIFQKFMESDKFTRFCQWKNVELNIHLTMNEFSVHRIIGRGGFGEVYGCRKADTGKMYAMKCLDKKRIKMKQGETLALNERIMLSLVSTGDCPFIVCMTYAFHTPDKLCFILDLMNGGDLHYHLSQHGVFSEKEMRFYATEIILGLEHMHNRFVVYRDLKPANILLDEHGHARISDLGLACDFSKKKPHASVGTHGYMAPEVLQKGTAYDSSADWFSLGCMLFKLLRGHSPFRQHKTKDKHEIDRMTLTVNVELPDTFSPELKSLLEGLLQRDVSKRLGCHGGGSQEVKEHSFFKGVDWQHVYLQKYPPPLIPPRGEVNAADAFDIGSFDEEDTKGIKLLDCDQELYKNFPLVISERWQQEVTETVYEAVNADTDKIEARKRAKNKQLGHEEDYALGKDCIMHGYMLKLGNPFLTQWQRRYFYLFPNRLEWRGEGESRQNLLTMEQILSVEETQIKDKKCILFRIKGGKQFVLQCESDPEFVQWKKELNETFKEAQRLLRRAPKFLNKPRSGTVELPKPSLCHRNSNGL

Compound = Cc1ncsc1-c1ccc(C(C)NC(=O)C2CC(O)CN2C(=O)C(NC(=O)CCCCCCCCCCN2CCCC(Nc3ncc(Cl)c(Nc4ccccc4S(=O)(=O)C(C)C)n3)C2)C(C)(C)C)cc1 (stereo not drawn); tested on = 22Rv1; test = RNA-seq, item: TMEM185B mRNA; conditions = concentration not given; how to read = reference: DMSO; endpoint = log2 fold change; value = -1.57
Compound = CN1CCCNC(=O)CCC(=O)NCCCN(C)CCCNc2cccc3c2C(=O)c2cccc(c2C3=O)NCCC1; tested on = double-stranded DNA; test = DNA thermal stabilisation, CD melting; conditions = 4.5 µM, pH 7.4, with: 1.5 µM DNA, 100 mM KCl; endpoint = ΔTm; value = < 0.5 °C
Compound = CC(C)C[C@H](NC(=O)[C@H](Cc1ccc(O)cc1)NC(=O)[C@@H](CCCNC(=N)N)NC(=O)[C@@H](CO)NC(=O)[C@H](Cc1ccccc1)NC(=O)[C@H](CC1CCCCC1)NC(=O)[C@H](CC(=O)O)NC(=O)CN1CCN(CC(=O)O)CCN(CC(=O)O)CCN(CC(=O)O)CC1)C(=O)N[C@@H](Cc1c[nH]c2ccccc12)C(=O)N[C@@H](CO)C(=O)O [copper-64 labelled]; system = human, small intestine; conditions = concentration not given, 24 h; endpoint = activity concentration; value = 1070 Bq/mL and 569 Bq/mL and 1500 Bq/mL and 1990 Bq/mL and 2310 Bq/mL and 1210 Bq/mL
Compound = Fc1ccc(Nc2nc(NC3CCCCC3)c3cc(C(F)(F)F)ccc3n2)cc1F; tested on = β2AR/β1AR TM5 chimera; test = β-arrestin2 recruitment, antagonist, BRET; conditions = with: isoprenaline 1 µM; endpoint = pIC50; value = 6.8
Compound = CC(C)C[C@H](NC(=O)[C@@H](CCCCNC(=O)[C@@H](Cc1ccccc1)NC(=O)CCCCCNC(=O)CN1CCN(CC(=O)O)CCN(CC(=O)O)CCN(CC(=O)O)CC1)NC(=O)[C@H](Cc1ccc(O)cc1)NC(=O)[C@H](CO)NC(=O)[C@H](Cc1c[nH]c2ccccc12)NC(=O)[C@H](Cc1c[nH]cn1)NC(=O)[C@@H]1CCC(=O)N1)C(=O)N[C@@H](CCCNC(=N)N)C(=O)N1CCC[C@H]1C(=O)NCC(N)=O [indium-111 labelled]; system = female athymic nude mice, lung; conditions = intravenous, 0.037 MBq, 4 h; endpoint = tissue uptake; value = 0.1 ± 0.04 %ID/g
Compound = Fc1ccc(Nc2nc(NC3CCCCC3)c3cc(Br)ccc3n2)cc1F; tested on = β2AR/β1AR TM5 chimera; test = β-arrestin2 recruitment, antagonist, BRET; how to read = reference: isoprenaline maximal response; endpoint = maximal inhibition; value = 4.2%
Compound = CCCCCCCCCCCC(=O)N[C@H](CO)C[C@@H](O)c1ccccc1; tested on = ceramide transfer protein (CERT), human; test = cellular CERT activity, HPLC-MS/MS lipidomics; system = HeLa; conditions = 1 µM, 24 h, normalised to cell number; endpoint = SM 24:1 amount; value = 189000 pmol/sample and 166000 pmol/sample and 167000 pmol/sample
Compound = O=C(N/N=C/c1ccc(C[n+]2ccccc2)cc1)c1cc(C(=O)N/N=C/c2ccc(C[n+]3ccccc3)cc2)ncn1; tested on = myc22 MYC G4-DNA parallel; test = FRET melting; conditions = 1 µM, K1 buffer, DNA 0.2 µM, with: ds26 10 µM; endpoint = ΔTm; value = 3.5 ± 0.5 °C
Compound = O=C1C2CC3CC1CC(C(=O)N1CCN(c4ccc([N+](=O)[O-])c5ncccc45)CC1)(C3)C2; tested on = Salmonella typhimurium; test = Ames test; system = TA100; conditions = 0.31 µg/well, with S9; endpoint = mean revertant colonies; value = 31 colonies/well
Compound = CC(C)OCCOCc1ccc(OCC(O)CN(N=O)C(C)C)cc1 (stereo not drawn); tested on = Salmonella typhimurium; test = Ames test; system = TA98; conditions = 15.8 µg/plate, 30 % hamster S9; how to read = reference: solvent control; endpoint = revertant fold increase; value = 1 fold
Compound = O=C(N/N=C/c1ccc2c(ccc[n+]2Cc2ccccc2)c1)c1cc(C(=O)N/N=C/c2ccc3c(ccc[n+]3Cc3ccccc3)c2)ncn1; tested on = myc22 MYC G4-DNA parallel; test = FRET melting; conditions = 1 µM, K1 buffer, DNA 0.2 µM; endpoint = ΔTm; value = 7.4 ± 1 °C
Compound = CCCCCCc1cccc([C@H](O)C[C@H](CO)NC(=O)CCCCCCCCCCBr)c1; tested on = ceramide transfer protein (CERT), human; test = cellular CERT activity, HPLC-MS/MS lipidomics; system = HeLa; conditions = 1 µM, 24 h; endpoint = SM/ceramide ratio C18; value = 30 ,0
Compound = CO[C@@H]1[C@@H](OC)[C@H]2O[C@H]3[C@H](OC)[C@@H](OC)[C@@H](O[C@H]4[C@H](OC)[C@@H](OC)[C@@H](O[C@H]5[C@H](OC)[C@@H](OC)[C@@H](O[C@H]6[C@H](OC)[C@@H](OC)[C@@H](O[C@H]7[C@H](OC)[C@@H](OC)[C@@H](O[C@@H]1[C@@H](Cn1cc(CCCC(=O)N[C@H]8CCOC8=O)nn1)O2)O[C@@H]7Cn1cc(CCCC(=O)N[C@H]2CCOC2=O)nn1)O[C@@H]6Cn1cc(CCCC(=O)N[C@H]2CCOC2=O)nn1)O[C@@H]5Cn1cc(CCCC(=O)N[C@H]2CCOC2=O)nn1)O[C@@H]4Cn1cc(CCCC(=O)N[C@H]2CCOC2=O)nn1)O[C@@H]3Cn1cc(CCCC(=O)N[C@H]2CCOC2=O)nn1; test = NMR; system = water; conditions = 20 °C; endpoint = solubility; value = 8.7 mM (≈ 21.4 mg/mL)
Compound = Cc1[nH]nc2c1N=C(c1ccccc1Cl)c1cnc(N3CCOCC3)cc1N2; tested on = nicotinic acetylcholine receptor, human; test = radioligand binding; conditions = 10 µM; endpoint = inhibition; value = 12%
Compound = CCCCCCc1cccc(C(O)CC(CO)NC(=O)CCCCCCCCCCNC(C)=O)c1 (stereo not drawn); tested on = ceramide transfer protein (CERT), human; test = cellular CERT activity, HPLC-MS/MS lipidomics; system = HeLa; conditions = 1 µM, 24 h; endpoint = SM/ceramide ratio C24:1; value = 4 ,0 and 6 ,0
Compound = C=CC(=O)N1[C@H](c2ccc3c(c2)OCO3)c2[nH]c3ccccc3c2C[C@@H]1C(=O)N1CCN(C)CC1; tested on = human cyclin E1 N112C-3xFLAG:CDK2; test = co-IP with TMT proteomics, item: SRSF3; conditions = concentration not given, P84103; how to read = reference: wild type DMSO; endpoint = relative co-enrichment; value = 123%
Compound = CC[n+]1cccc2cc(/C=N/NC(=O)N/N=C/c3ccc4c(ccc[n+]4CC)c3)ccc21; tested on = myc22 MYC G4-DNA parallel; test = FRET melting; conditions = 1 µM, K1 buffer, DNA 0.2 µM; endpoint = ΔTm; value = 5.6 ± 0.4 °C
Compound = CC(C)(O)c1ccn2c(-c3ccc(F)c(-c4ccc(F)cc4C#N)c3)cnc2c1F; tested on = GABAA receptor α1 G251D human; test = co-immunoprecipitation, item: BiP, calnexin, LMAN1; system = HEK-293T; conditions = 5 µM, 24 h, with: hispidulin 10 µM; endpoint = protein interaction; value = increased
Compound = c1ccc(-c2n[nH]cc2-c2ccnc3ccccc23)nc1; tested on = orf19.4518 Candida albicans; test = kinase binding, MIB/MS competition; system = Candida albicans lysate; conditions = 10 µM; how to read = reference: DMSO; endpoint = log2 fold change; value = -0.15
Compound = CNC(=O)C1CCCN(C(=O)C2CC3CCC2N3C(=O)[C@@H]2C[C@@H](O)CN2C(=O)NCc2cccc(Cl)c2F)C1 (mixture of isomers); tested on = Cytochrome P450 1A2 (CYP1A2, Homo sapiens, UniProt P05177); test = preincubation with NADPH; system = human; conditions = 0.617 µM; how to read = reference: negative control; endpoint = remaining activity; value = 106% and 108%
Compound = NCCCn1cc(COc2cc(C(=O)Nc3cc(OCCN)c4ccccc4n3)nc(C(=O)Nc3cc(OCCN)c4ccccc4n3)c2)nn1; tested on = double-stranded DNA; test = FRET melting; conditions = 1 µM, pH 7.4, 60 mM potassium, with: oligonucleotide 200 nM; endpoint = delta Tm; value = 0 ± 0.1 K
Compound = Cc1nn(-c2cccc(N)c2)c(=O)c2cnc(Nc3ccc(N4CCNCC4)cc3)nc12; tested on = GRK3 (Homo sapiens, UniProt P35626); test = enzyme activity, inhibitor; endpoint = IC50; value = > 10000 nM
Compound = C[n+]1ccc(/C=N/NC(=O)N/N=C/c2cc[n+](C)c3ccccc23)c2ccccc21; tested on = myc22 MYC G4-DNA parallel; test = FRET melting; conditions = 1 µM, K1 buffer, DNA 0.2 µM; endpoint = ΔTm; value = 6.1 ± 0.4 °C
Compound = Nc1ncc(-c2cc(-c3cnn(CC(F)(F)F)c3)ncc2F)nc1C(=O)NC1CNCC(F)C1 (stereo not drawn); tested on = PAK2; test = KINOMEscan; conditions = 1 µM; how to read = reference: DMSO control; endpoint = remaining binding; value = 52%
Compound = NCCOc1cc(NC(=O)c2cc(OCc3cn(Cc4ccc(C(=O)O)cc4)nn3)cc(C(=O)Nc3cc(OCCN)c4ccccc4n3)n2)nc2ccccc12; tested on = double-stranded DNA; test = FRET melting; conditions = 1 µM, pH 7.4, 60 mM potassium, with: oligonucleotide 200 nM; endpoint = delta Tm; value = 0 ± 0.1 K
Compound = CC(C)(CO)Cc1cn(C2CCCN(C(=O)c3ccc4c(c3)CCOC4(C)C)CC2)nn1 (stereo not drawn); tested on = FSP1 F15A; test = resorufin formation, inhibitor; conditions = with: NADH, resazurin; endpoint = IC50; value = no inhibition
Compound = C[C@@H](Nc1nc(N[C@H](C)C(F)(F)F)nc(-c2cccc(Cl)n2)n1)C(F)(F)F; tested on = IDH1 (Homo sapiens, UniProt O75874, R132H); test = enzyme activity; conditions = 1 h preincubation, mutant heterodimer, reverse reaction; endpoint = maximal inhibition; value = 110 ± 3.8%
Compound = C=CC(=O)Nc1cccc(Cn2ncc3cnc(Nc4cnn(CCOC)c4)nc32)c1; tested on = NEK6 human; test = binding, KINOMEscan; conditions = 100 nM; how to read = lower = stronger binding; endpoint = percent of control; value = 100%
Compound = CC[n+]1cccc2cc(/C=N/NC(=O)C(=O)N/N=C/c3ccc4c(ccc[n+]4CC)c3)ccc21; tested on = myc22 MYC G4-DNA parallel; test = FRET melting; conditions = 1 µM, K1 buffer, DNA 0.2 µM; endpoint = ΔTm; value = 3.6 ± 0.6 °C
Compound = CNS(=O)(=O)Nc1nccc(Cc2c(C)c3ccc(Oc4ncccc4F)cc3oc2=O)c1F; tested on = RL; test = cell viability, CellTiter-Glo; conditions = 7 days; endpoint = IC50; value = 3.62 nM
Compound = O=C(N/N=C/c1cc[n+](CC2CC2)c2ccccc12)c1ccc2ccc(C(=O)N/N=C/c3cc[n+](CC4CC4)c4ccccc34)nc2n1; tested on = myc22 MYC G4-DNA parallel; test = FRET melting; conditions = 1 µM, K1 buffer, DNA 0.2 µM; endpoint = ΔTm; value = 22.4 ± 0.4 °C
Compound = CCCCCCCCCCCC(=O)N[C@@H](CO)C[C@@H](O)c1cccc(CCCCCC)c1; tested on = ceramide transfer protein (CERT), human; test = cellular CERT activity, HPLC-MS/MS lipidomics; system = HeLa; conditions = 1 µM, 24 h; endpoint = SM/ceramide ratio C24; value = 4 ,0
Compound = C[n+]1ccc(/C=N/NC(=O)c2cccc(C(=O)N/N=C/c3cc[n+](C)c4ccccc34)n2)c2ccccc21; tested on = G-quadruplex DNA 22CTA antiparallel; test = UV melting; conditions = 6 µM, K10 buffer, with: DNA 3 µM; endpoint = delta Tm; value = 37.1 °C
Compound = COC1CN([C@H]2CC[C@H]([C@@]3(C)Oc4c(Cl)cc(C(=O)NCc5c(SC)cc(C)[nH]c5=O)c(C)c4O3)CC2)C1; test = RNA-seq, item: CLDN4 mouse homolog; system = mouse, HT-1376 xenograft, whole blood; conditions = dose not given; how to read = reference: vehicle; endpoint = log2 fold change; value = 1.44
Compound = C[n+]1cccc2cc(/C=N/NC(=O)c3cccc(C(=O)N/N=C/c4ccc5c(ccc[n+]5C)c4)c3)ccc21; tested on = myc22 MYC G4-DNA parallel; test = FRET melting; conditions = 1 µM, K1 buffer, DNA 0.2 µM, with: ds26 10 µM; endpoint = ΔTm; value = 4.4 ± 0.3 °C
Compound = C=C(NC(=O)c1csc(-c2nc3c(cc2O)-c2nc(cs2)C(=O)NC(C(C)O)C(=O)NC(=C(C)OC)c2nc(cs2)C(=O)NC2c4nc(cs4)C(=O)NC(COC(=O)c4c5c6c(cccc6n4O)COC(=O)C(OC4CC(C)(O)C(N(C)C)C(C)O4)C2OC5)c2nc-3cs2)n1)C(N)=O (stereo not drawn); system = Sprague-Dawley rat, male, plasma; conditions = intravenous infusion, 6 mg/kg, multiple doses, day 1; endpoint = Cmax; value = 3390 ng/mL

Repeated from above:
Compound = Fc1ccc(Nc2nc(NC3CCCCC3)c3cc(Br)ccc3n2)cc1F; tested on = β2AR/β1AR TM5 chimera; test = β-arrestin2 recruitment, antagonist, BRET; how to read = reference: isoprenaline maximal response; endpoint = maximal inhibition; value = 4.2%
Compound = CN1CCCNC(=O)CCC(=O)NCCCN(C)CCCNc2cccc3c2C(=O)c2cccc(c2C3=O)NCCC1; tested on = double-stranded DNA; test = DNA thermal stabilisation, CD melting; conditions = 4.5 µM, pH 7.4, with: 1.5 µM DNA, 100 mM KCl; endpoint = ΔTm; value = < 0.5 °C
Compound = c1ccc(-c2n[nH]cc2-c2ccnc3ccccc23)nc1; tested on = orf19.4518 Candida albicans; test = kinase binding, MIB/MS competition; system = Candida albicans lysate; conditions = 10 µM; how to read = reference: DMSO; endpoint = log2 fold change; value = -0.15
